Results pooled from the literature.
Protocols differ between the studies behind these lines. ± gives the spread as reported.
USP13 ZnF-UBD domain: Ubiquitin carboxyl-terminal hydrolase 13, ZnF-UBD domain (USP13, Homo sapiens, UniProt Q92995)
UniProt Q92995, sequence (whole entry, looked up): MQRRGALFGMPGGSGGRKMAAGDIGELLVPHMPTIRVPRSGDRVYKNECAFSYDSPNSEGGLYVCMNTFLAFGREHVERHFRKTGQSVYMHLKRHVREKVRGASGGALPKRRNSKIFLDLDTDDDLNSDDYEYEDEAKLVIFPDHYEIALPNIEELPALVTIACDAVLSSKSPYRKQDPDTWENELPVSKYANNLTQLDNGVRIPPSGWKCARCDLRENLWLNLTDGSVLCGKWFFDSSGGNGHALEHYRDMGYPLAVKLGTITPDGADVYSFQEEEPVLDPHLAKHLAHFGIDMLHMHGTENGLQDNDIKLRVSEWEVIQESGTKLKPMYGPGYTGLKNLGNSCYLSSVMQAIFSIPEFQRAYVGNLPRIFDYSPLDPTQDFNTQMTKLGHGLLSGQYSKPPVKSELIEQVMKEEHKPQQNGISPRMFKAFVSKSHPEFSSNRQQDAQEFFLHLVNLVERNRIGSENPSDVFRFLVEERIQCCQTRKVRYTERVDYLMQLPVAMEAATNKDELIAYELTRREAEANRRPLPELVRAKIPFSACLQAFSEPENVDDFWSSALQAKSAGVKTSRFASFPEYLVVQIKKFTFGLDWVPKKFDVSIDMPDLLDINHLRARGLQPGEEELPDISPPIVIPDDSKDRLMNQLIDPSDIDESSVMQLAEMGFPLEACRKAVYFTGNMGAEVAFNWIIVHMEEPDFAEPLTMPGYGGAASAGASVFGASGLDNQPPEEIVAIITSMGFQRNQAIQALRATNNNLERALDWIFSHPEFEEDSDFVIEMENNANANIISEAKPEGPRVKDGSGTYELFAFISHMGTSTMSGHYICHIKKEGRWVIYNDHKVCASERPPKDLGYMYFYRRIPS
Neuromedin-U receptor 2: Neuromedin-U receptor 2 (Mus musculus, UniProt Q8BZ39)
UniProt Q8BZ39, sequence (whole entry, looked up): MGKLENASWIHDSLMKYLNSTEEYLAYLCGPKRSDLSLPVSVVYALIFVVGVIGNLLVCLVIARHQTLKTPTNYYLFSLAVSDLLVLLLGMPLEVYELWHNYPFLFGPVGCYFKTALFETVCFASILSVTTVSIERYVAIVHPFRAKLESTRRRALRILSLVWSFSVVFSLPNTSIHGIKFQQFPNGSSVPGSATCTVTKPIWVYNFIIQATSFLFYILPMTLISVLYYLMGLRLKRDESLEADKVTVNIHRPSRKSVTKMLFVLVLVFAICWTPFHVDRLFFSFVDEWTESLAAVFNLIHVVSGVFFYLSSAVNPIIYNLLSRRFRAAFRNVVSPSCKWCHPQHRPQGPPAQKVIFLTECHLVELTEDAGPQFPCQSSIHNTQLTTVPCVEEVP
HDAC6: Protein deacetylase HDAC6 (HDAC6, Homo sapiens, UniProt Q9UBN7)
UniProt Q9UBN7, sequence (whole entry, looked up): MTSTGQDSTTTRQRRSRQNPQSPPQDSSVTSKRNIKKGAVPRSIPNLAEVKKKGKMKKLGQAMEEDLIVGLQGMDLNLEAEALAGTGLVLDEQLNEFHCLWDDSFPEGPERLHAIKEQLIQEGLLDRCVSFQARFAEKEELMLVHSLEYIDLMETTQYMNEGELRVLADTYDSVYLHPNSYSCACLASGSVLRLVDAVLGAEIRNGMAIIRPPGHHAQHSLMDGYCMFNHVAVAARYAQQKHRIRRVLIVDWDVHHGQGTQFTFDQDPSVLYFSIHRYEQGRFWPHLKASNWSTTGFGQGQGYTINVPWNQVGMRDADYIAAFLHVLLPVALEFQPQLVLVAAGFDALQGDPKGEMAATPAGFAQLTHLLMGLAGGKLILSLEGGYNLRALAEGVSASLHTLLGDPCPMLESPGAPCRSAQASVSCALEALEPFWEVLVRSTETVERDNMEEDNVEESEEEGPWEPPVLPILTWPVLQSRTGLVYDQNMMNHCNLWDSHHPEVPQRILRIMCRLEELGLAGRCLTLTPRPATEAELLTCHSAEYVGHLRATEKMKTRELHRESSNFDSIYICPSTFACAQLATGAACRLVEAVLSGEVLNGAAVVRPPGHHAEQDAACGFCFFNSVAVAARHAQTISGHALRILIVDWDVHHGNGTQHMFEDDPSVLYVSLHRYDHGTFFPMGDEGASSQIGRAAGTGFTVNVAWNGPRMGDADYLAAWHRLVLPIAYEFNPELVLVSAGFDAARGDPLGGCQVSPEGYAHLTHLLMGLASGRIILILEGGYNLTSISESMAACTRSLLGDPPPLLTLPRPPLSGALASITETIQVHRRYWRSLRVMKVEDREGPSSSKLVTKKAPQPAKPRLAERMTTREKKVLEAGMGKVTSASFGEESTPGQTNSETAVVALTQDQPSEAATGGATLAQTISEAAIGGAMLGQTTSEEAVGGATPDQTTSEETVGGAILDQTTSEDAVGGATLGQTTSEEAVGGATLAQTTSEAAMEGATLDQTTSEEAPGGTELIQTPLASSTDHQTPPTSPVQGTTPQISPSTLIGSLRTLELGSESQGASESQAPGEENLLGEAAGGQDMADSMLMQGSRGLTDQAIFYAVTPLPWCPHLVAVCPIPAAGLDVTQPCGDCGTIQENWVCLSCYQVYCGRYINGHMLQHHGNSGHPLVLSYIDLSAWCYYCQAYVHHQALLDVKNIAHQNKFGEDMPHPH
SMARCA2: SWI/SNF-related matrix-associated actin-dependent regulator of chromatin subfamily A member 2 (SMARCA2, Homo sapiens, UniProt P51531)
HDAC6 ZnF-UBD domain: Protein deacetylase HDAC6, ZnF-UBD domain (HDAC6, Homo sapiens, UniProt Q9UBN7)
UniProt Q00961, sequence (whole entry, unmodified, looked up): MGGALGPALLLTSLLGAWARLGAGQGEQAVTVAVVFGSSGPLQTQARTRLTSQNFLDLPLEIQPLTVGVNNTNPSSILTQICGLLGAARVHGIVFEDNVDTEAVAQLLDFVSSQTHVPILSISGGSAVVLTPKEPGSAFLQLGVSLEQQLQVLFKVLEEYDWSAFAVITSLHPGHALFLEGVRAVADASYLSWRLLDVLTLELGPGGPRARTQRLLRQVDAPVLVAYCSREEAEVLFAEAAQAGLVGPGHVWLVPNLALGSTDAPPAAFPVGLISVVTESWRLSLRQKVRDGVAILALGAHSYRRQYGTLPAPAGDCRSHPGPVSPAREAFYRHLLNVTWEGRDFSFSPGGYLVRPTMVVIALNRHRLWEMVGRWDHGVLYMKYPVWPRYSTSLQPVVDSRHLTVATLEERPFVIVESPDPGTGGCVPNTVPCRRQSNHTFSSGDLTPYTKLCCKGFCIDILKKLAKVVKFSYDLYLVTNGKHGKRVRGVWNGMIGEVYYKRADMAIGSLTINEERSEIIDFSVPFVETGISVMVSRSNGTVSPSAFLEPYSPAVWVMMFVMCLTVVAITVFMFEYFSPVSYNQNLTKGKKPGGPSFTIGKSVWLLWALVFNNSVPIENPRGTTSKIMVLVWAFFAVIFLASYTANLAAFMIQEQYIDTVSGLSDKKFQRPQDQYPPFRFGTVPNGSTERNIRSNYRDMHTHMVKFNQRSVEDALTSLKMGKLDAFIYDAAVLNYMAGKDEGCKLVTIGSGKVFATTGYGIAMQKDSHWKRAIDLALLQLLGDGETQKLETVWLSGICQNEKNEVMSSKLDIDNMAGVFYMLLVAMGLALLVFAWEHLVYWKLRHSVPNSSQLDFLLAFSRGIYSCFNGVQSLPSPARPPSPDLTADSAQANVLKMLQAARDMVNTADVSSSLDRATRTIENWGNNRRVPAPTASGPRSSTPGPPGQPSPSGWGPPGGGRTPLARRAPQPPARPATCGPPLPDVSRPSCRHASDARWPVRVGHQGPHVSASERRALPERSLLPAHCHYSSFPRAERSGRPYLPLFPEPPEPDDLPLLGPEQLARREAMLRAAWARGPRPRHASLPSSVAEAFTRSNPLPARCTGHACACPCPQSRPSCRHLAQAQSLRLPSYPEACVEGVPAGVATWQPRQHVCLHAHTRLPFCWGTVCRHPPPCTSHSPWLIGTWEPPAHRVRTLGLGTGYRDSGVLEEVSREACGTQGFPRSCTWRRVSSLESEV
UniProt Q16774, sequence (whole entry, unmodified, looked up): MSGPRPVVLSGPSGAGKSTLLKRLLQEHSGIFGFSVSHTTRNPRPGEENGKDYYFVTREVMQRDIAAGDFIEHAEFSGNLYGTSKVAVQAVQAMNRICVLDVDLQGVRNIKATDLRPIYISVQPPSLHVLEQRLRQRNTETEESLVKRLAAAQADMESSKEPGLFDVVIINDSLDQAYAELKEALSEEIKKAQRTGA
UniProt Q9UKI8, sequence (whole entry, looked up): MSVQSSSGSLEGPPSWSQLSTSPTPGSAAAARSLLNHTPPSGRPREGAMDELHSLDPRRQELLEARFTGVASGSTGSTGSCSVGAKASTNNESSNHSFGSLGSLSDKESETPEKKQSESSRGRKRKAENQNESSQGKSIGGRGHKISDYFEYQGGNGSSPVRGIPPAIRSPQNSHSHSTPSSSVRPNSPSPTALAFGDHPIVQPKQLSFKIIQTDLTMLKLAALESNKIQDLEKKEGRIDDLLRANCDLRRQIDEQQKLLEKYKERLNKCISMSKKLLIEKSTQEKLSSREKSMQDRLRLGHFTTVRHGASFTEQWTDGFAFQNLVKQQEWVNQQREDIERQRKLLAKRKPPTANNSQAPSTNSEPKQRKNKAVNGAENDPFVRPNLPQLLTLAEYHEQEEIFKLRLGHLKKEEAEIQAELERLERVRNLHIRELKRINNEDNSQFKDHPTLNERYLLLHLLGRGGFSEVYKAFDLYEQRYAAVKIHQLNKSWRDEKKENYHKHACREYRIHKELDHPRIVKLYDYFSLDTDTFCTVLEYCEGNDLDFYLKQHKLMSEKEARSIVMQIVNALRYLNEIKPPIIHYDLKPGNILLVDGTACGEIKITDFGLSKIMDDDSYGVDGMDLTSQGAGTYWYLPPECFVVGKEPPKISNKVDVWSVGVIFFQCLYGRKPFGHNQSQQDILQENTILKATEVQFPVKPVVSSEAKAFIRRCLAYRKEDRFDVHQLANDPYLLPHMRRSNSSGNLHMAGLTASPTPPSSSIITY
UniProt P34995, sequence (whole entry, unmodified, looked up): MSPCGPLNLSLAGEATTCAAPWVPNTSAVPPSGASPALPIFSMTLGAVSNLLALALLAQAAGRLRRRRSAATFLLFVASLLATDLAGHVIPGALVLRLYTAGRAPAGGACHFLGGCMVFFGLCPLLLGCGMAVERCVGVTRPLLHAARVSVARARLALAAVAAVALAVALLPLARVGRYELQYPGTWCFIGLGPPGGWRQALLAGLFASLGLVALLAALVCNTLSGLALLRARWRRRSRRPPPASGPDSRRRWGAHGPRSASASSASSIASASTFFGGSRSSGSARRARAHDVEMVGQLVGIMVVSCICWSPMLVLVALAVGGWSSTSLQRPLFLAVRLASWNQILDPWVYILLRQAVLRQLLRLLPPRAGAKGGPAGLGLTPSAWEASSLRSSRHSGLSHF

Structure (SMILES)	target	assay	system	setting	measurement	result
CCCCC[C@H](O)/C=C/[C@H]1[C@H](O)CC(=O)[C@@H]1C/C=C\CCCC(=O)O	Prostaglandin E2 receptor EP1 subtype (PTGER1, Homo sapiens, UniProt P34995, W310A)	IP1 accumulation, agonist	AD293	EP1 W310A mutant	EC50	0.0619 µM
NC(=O)c1cc(-n2c(CCC(=O)O)nc3ccccc32)cs1	USP13 ZnF-UBD domain	–	–	–	Kd	754 µM
Cc1ccc(NC(=O)NCc2ccc3c(c2)CN(C2CCC(=O)NC2=O)C3=O)cc1Cl (centres unmarked)	Sal-like protein 4 (SALL4, Homo sapiens, UniProt Q9UJQ4)	degrader, immunofluorescence	C33A	–	DC50	0.003 ± 0.001 µM
CC(C)C[C@H](NC(=O)[C@H](Cc1ccccc1)NC(=O)[C@@H](N)Cc1ccc(O)cc1)C(=O)N[C@@H](Cc1ccccc1)C(=O)N[C@@H](CCCNC(=N)N)C(=O)N1CCC[C@H]1C(=O)N[C@@H](CCCNC(=N)N)C(=O)N[C@@H](CC(N)=O)C(N)=O	Neuromedin-U receptor 2	β-arrestin recruitment, agonist	–	–	EC50	0.0083 µM
CN(CCCCCCNC(=O)COc1ccc(C2CCC(=O)NC2=O)cc1)Cc1cn(Cc2ccc(C(=O)NO)cc2)c2ccccc12 (centres unmarked)	HDAC6	degrader, western blot	MM1.S cells	24 h	DC50	0.0045 ± 0.0004 µM
Nc1nc(CC(=O)O)cs1	USP13 ZnF-UBD domain	–	–	–	Kd	> 1000 µM
CC(=O)N[C@H]1[C@H](O[C@H]2[C@H](O)[C@@H](NC(C)=O)C(O)O[C@@H]2CO)O[C@H](CO)[C@@H](O[C@@H]2O[C@H](CO)[C@@H](O)[C@H](O)[C@H]2NC(C)=O)[C@@H]1O (some centres unmarked)	Lysozyme C (LYZ, Gallus gallus, UniProt P00698)	surface sampling native MS	–	charge state 7+	Kd	16.4 ± 2.1 µM
Cc1ncsc1-c1ccc(CNC(=O)[C@@H]2C[C@@H](O)CN2C(=O)[C@@H](NC(=O)C2(F)CC2)C(C)(C)C)c(OCCOc2ccc(CN3CCN(c4cc(-c5ccccc5O)nnc4N)CC3)cc2)c1	SMARCA2	degrader, capillary electrophoresis	MV4-11	18 h	DC50	0.031 µM
Cc1ncsc1-c1ccc(CNC(=O)[C@@H]2C[C@@H](O)CN2C(=O)[C@@H](NC(=O)C2(F)CC2)C(C)(C)C)c(OCCOc2ccc(CN3CCN(c4cc(-c5ccccc5O)nnc4N)CC3)cc2)c1	SMARCA2	degrader, immunofluorescence	SW1573	–	DC50	0.00529 µM
C[N+](C)(C)Cc1cccc(N=Nc2cccc(C[N+](C)(C)C)c2)c1	muscarinic receptor, Rana temporaria	antagonist, radioligand displacement	ventricle homogenate	added: [3H]N-methylscopolamine	Kd	4 to 5 µM
O=C(CNc1cccc2c1C(=O)N(C1CCC(=O)NC1=O)C2=O)NCCCCCCN1CCc2c(c3ccccc3n2Cc2ccc(C(=O)NO)cc2)C1 (centres unmarked)	HDAC6	degrader, western blot	MM1.S cells	24 h	DC50	0.013 ± 0.0034 µM
Nc1ncnc2c1ncn2[C@@H]1O[C@H](CO[P@](=O)(O)O[P@](=O)(O)O[P@@](=O)(O)S)[C@@H](O)[C@H]1O	GUK1 (Homo sapiens, UniProt Q16774, K17A)	binding, ITC	–	25 °C, added: GMP	Kd	140 ± 20 µM
O=C(O)Cn1cnc2c(oc3ccccc32)c1=O	USP13 ZnF-UBD domain	–	–	–	Kd	> 1000 µM
Nc1nnc(-c2ccccc2O)cc1N1CCN(Cc2ccc(OCCOCCNc3cccc4c3C(=O)N(C3CCC(=O)NC3=O)C4=O)c(F)c2)CC1 (centres unmarked)	SMARCA2	degrader, immunoblot	SMARCA4-mutant lung cancer cells	96 h, median of twelve cell lines	DC50	0.0302 µM
Nc1nnc(-c2ccccc2O)cc1N1CC2CCC(C1)N2c1ccnc(F)c1	SMARCA2	degrader, immunofluorescence	SW1573	–	DC50	> 1 µM
O=C(O)CCc1ccccc1	HDAC6 ZnF-UBD domain	–	–	–	Kd	> 1000 µM
CC[C@@H]1[C@H](F)C(=O)N[C@@H]1COc1nccc2cc(C(N)=O)c(OC)cc12	Serine/threonine-protein kinase tousled-like 1 (TLK1, Homo sapiens, UniProt Q9UKI8)	ATP-site probe binding, ActivX profiling	THP-1 cell lysate	Lys2 site	IC50	1.8 µM
O=C(O)CNc1ncccn1	HDAC6 ZnF-UBD domain	–	–	–	Kd	> 1000 µM
N[C@H](CNC(=O)c1cc(Br)c(-c2ccccc2F)s1)C(=O)O	Glutamate NMDA receptor; Grin1/Grin2c (Rattus norvegicus, UniProt P35439+Q00961, V689I)	receptor activation, positive modulator	rat	added: glutamate 300 µM	EC50	0.0132 µM
Cc1cc(Nc2cc3ncccc3c(N[C@@H]3C[C@H]4CC[C@@H](C3)N4CCC#N)n2)n[nH]1	Serine/threonine-protein kinase 3 (STK3, Homo sapiens, UniProt Q13188)	binding, KINOMEscan	–	–	Kd	0.14 µM
O=C(O)CSc1nnc(NC(=O)COc2ccccc2)s1	HDAC6 ZnF-UBD domain	–	–	–	Kd	273 µM
Nc1nnc(-c2ccccc2O)cc1N1CCN(Cc2ccc(N3CCN(CCOc4cccc5c4C(=O)N(C4CCC(=O)NC4=O)C5=O)CC3)c(F)c2)CC1 (centres unmarked)	SMARCA2	degrader, immunoblot	H1792 SMARCA4 wild-type	72 h	DC50	0.066 µM
O=C(O)CCC(=O)N1CCc2ccccc21	HDAC6 ZnF-UBD domain	–	–	–	Kd	95.6 µM
CSc1ccccc1C(=O)NCCn1cc(C(=O)NCc2cccc(C)n2)c(=O)c2cc3c(cc21)OC(F)(F)O3	Cytochrome P450 2B6 (CYP2B6, Homo sapiens, UniProt P20813)	enzyme activity, inhibitor	human liver microsomes	20 min, 30 min NADPH preincubation, added: bupropion 50 µM	IC50	> 100 µM
O=C(O)Cn1cc2ccccc2n1	USP13 ZnF-UBD domain	–	–	–	Kd	> 1000 µM
CC(C)C[C@H](NC(=O)[C@H](Cc1ccccc1)NC(=O)[C@H](Cc1ccc(O)cc1)NC(=O)CNC(=O)[C@H](CCCNC(=N)N)NC(=O)[C@H](CO)NC(=O)[C@H](CCC(N)=O)NC(=O)[C@H](CO)NC(=O)[C@H](C)NC(=O)[C@H](Cc1ccccc1)NC(=O)[C@@H]1CCCN1C(=O)[C@H](CO)NC(=O)[C@H](CCC(N)=O)NC(=O)[C@H](Cc1ccccc1)NC(=O)[C@H](CCC(=O)O)NC(=O)[C@H](CCC(=O)O)NC(=O)[C@H](CC(=O)O)NC(=O)[C@@H](NC(=O)[C@H](CCCNC(=N)N)NC(=O)[C@@H](N)Cc1ccccc1)C(C)C)C(=O)N[C@@H](Cc1ccccc1)C(=O)N[C@@H](CCCNC(=N)N)C(=O)N1CCC[C@H]1C(=O)N[C@@H](CCCNC(=N)N)C(=O)N[C@@H](CC(N)=O)C(N)=O	Neuromedin-U receptor 2	Gq signalling, agonist, IP-1 accumulation	–	average of runs	EC50	0.00057 µM
